Measurements pooled from the literature.
Each numbered part is a random draw from the data of one study; scales do not carry over between parts. Several values in a cell are separate wells, animals, samples, runs or records.
Sequence of UniProt P29320 (whole entry, looked up): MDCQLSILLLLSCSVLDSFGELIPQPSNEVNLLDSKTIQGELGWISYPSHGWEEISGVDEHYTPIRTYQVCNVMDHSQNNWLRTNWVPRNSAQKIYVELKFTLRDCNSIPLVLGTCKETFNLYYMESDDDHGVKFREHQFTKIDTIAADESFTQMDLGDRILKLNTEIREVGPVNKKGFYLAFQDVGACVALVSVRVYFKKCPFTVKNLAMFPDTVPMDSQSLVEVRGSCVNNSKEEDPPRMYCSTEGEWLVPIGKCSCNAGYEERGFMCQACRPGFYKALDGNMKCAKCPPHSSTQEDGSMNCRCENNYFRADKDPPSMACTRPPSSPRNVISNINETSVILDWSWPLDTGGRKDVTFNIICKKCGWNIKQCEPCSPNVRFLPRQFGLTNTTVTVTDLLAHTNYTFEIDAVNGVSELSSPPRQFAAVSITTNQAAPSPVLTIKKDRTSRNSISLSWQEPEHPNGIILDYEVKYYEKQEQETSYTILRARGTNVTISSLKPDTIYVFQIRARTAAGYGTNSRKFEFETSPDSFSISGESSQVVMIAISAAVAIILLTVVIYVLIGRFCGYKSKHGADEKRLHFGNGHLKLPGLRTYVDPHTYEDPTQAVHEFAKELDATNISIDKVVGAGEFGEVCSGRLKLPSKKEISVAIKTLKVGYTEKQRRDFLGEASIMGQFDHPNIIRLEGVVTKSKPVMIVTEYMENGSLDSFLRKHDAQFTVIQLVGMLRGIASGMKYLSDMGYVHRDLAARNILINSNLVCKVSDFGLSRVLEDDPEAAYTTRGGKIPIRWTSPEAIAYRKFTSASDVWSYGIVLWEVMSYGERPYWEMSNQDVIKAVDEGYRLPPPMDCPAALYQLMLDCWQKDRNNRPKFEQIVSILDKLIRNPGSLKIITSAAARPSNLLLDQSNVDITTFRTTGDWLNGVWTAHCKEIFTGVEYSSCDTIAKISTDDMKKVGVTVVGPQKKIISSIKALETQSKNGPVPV
Sequence of UniProt P36507 (whole entry, looked up): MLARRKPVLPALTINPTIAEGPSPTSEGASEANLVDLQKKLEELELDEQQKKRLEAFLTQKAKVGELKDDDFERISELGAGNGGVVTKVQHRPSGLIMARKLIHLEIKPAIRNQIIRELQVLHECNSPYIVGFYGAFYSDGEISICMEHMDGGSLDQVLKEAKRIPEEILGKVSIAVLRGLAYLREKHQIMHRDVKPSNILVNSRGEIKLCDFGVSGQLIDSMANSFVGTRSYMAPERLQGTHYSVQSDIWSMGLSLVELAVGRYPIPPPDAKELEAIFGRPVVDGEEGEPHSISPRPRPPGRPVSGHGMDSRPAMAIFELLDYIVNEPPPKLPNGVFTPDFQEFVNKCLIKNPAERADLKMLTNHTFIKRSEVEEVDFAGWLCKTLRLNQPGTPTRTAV
Sequence of UniProt Q15349 (whole entry, looked up): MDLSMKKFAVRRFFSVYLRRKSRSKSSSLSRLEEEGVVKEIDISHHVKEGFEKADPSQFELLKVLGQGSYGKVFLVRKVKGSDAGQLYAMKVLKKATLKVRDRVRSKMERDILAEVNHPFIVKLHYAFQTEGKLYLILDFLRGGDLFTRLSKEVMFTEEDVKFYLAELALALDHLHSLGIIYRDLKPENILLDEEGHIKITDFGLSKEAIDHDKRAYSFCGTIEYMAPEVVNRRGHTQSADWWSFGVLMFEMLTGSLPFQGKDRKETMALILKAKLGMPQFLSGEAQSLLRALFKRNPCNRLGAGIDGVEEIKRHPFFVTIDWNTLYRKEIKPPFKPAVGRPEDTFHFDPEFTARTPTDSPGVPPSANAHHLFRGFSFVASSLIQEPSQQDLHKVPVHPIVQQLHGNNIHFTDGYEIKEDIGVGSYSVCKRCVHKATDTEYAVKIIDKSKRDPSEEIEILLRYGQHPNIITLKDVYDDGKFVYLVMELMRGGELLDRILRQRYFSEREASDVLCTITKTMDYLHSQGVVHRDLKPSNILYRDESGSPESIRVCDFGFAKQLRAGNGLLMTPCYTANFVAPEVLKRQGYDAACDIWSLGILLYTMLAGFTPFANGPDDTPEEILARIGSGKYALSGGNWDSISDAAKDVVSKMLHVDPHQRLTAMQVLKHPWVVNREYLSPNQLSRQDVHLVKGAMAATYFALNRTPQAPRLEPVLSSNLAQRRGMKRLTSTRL
Sequence of UniProt P10398 (whole entry, looked up): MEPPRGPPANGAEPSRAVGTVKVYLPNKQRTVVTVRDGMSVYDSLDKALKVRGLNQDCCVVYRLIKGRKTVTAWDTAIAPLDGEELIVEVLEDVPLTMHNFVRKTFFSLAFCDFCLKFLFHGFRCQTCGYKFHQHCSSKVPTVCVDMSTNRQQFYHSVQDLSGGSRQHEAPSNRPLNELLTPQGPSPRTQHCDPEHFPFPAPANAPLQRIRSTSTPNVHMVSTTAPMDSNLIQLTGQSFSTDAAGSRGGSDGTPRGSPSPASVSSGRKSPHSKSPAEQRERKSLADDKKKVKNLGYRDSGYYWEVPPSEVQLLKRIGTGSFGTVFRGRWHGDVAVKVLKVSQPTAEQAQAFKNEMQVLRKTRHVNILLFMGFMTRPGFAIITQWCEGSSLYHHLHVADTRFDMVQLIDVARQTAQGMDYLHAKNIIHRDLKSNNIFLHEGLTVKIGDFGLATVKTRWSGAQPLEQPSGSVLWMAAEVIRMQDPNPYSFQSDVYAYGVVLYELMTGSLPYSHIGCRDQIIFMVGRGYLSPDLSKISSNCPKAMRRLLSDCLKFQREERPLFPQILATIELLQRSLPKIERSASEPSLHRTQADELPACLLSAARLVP
Sequence of UniProt P49760 (whole entry, looked up): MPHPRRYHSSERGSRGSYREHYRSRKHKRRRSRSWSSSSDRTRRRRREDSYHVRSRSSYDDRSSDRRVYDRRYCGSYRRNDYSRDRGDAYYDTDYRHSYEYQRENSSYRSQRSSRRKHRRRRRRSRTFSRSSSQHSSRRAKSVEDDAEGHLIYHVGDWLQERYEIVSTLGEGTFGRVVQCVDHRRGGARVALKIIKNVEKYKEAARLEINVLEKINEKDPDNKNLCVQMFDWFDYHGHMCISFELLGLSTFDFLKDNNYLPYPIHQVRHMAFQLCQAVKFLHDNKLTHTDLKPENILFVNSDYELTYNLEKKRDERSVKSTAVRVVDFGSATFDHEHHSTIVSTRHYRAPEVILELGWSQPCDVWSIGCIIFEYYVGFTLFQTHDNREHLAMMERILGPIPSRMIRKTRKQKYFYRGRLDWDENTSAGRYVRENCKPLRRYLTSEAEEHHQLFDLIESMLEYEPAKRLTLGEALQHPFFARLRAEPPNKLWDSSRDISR
Sequence of UniProt Q9Y6M4 (whole entry, looked up): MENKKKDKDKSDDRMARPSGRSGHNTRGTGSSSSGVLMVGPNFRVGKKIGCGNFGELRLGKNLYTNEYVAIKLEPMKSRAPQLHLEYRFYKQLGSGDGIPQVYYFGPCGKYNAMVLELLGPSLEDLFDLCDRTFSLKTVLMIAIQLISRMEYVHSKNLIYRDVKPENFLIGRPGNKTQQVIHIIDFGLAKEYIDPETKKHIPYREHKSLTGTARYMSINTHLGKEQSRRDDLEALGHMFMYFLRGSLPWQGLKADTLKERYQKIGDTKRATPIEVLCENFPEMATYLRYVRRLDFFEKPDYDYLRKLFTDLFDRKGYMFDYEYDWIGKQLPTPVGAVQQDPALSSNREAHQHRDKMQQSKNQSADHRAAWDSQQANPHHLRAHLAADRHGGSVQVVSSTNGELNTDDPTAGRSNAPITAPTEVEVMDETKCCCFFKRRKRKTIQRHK
Sequence of UniProt Q99683 (whole entry, looked up): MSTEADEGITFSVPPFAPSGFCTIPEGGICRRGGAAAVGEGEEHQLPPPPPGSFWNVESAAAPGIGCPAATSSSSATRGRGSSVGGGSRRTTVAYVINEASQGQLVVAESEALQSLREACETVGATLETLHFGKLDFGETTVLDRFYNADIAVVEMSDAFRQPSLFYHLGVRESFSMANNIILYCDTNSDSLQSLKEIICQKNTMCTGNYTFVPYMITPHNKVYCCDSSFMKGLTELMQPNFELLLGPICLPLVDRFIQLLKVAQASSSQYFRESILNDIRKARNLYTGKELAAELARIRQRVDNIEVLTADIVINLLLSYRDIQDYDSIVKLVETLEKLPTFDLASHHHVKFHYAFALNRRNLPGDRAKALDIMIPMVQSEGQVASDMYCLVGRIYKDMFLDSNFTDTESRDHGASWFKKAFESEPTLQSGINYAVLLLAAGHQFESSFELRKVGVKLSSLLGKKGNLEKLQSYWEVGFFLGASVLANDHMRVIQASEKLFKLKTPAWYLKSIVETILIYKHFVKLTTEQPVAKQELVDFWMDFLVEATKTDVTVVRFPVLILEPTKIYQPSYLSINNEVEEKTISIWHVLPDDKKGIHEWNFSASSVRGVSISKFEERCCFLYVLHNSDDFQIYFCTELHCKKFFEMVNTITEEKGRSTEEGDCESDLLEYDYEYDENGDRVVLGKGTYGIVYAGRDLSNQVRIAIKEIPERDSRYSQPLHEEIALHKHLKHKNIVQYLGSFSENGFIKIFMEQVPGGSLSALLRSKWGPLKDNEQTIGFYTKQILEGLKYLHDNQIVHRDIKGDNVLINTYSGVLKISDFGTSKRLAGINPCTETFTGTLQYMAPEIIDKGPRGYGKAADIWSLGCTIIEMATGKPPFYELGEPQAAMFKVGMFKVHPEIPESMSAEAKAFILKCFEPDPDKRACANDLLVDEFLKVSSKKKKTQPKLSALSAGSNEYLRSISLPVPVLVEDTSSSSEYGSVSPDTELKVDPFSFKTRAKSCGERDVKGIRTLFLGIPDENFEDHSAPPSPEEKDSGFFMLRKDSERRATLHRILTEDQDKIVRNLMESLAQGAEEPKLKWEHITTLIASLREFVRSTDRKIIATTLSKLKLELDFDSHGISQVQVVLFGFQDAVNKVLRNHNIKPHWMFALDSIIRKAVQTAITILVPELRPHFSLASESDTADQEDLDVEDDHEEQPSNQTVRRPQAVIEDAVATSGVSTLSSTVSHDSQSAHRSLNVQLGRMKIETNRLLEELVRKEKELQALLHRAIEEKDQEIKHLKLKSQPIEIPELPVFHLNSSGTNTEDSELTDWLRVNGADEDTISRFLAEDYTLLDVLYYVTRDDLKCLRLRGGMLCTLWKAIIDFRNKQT

Sample 1
Species: mouse
Sample: microsomes or S9
Concentration: 2 µM
Time: 0.5 h
Measurement: remaining compound
C=CCn1c(N)nnc1SC(C)C(=O)NC(N)=O (stereo not shown): 99.6%
Cn1cc(C(N)=O)cc1C(=O)Nc1ccccc1Oc1ccccc1: 0.27%
c1cc2c(cc1C1CCCCC1)c1c3n2CCN=C3NCC1: 77%
O=C1C[C@H](n2nc(-c3ccc(F)cc3)oc2=S)[C@H]2CO[C@@H]1O2: 7.17%

Sample 2
Cell line: mouse MPNST tumor cells
Method: high-content nuclear imaging
Item: cell number
Concentration: 10 µM
Time: 12 h
Notes: mean of 2 replicates
Relative to: plate mean
Reading: higher = more cells
Measurement: nuclei count
C[C@H]1C[C@H]2[C@@H]3CCC4=CC(=O)C=C[C@]4(C)[C@@]3(F)[C@@H](O)C[C@]2(C)[C@@]1(O)C(=O)CO: 2.78 z-score
COc1ccccc1OCC(O)COC(N)=O (stereo not shown): 0.323 z-score and 1.28 z-score
N=C(N)N1CCc2ccccc2C1: 0.72 z-score
CCCCN1CCCCC1C(=O)Nc1c(C)cccc1C (stereo not shown): 0.265 z-score
Clc1cccc(C(c2ccc3[nH]cnc3c2)n2ccnc2)c1 (stereo not shown): 2.96 z-score
O=C(Nc1ccccc1)N[C@@H]1C[C@@H](C(=O)O)Nc2cc(Cl)cc(Cl)c21: 0.22 z-score

Sample 3
Target: Diamine acetyltransferase 1 (Homo sapiens, UniProt P21673)
Action: inhibitor
Concentration: 10 µM
Relative to: control
Measurement: remaining activity
Construct (P21673 1-171): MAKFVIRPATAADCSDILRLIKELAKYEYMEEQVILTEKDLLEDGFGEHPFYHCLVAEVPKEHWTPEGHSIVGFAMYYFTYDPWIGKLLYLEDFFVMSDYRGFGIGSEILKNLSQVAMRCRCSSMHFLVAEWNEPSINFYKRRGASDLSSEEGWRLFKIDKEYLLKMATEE
COc1ccc(-c2cc(=O)c3c(O)cc(O[C@@H]4O[C@H](CO)[C@@H](O)[C@H](O)[C@H]4O)cc3o2)cc1: 85.2%
CCCCCCCCCCCCCCCCCCCCCCCC(=O)O: 95.4%
O=C1C[C@@H](c2ccc(O)cc2)Oc2cc(O[C@@H]3O[C@H](CO)[C@@H](O)[C@H](O)[C@H]3O)cc(O)c21: 87.8%
O=c1ccoc2cc(O)ccc12: 101%

Sample 4
Compound: COc1ccc2[nH]c3c4[nH]c5ccc(OC)cc5c4c4c(c3c2c1)C(=O)NC4=O
Concentration: 1 µM
Measurement: remaining binding
LATS2 (Homo sapiens, UniProt Q9NRM7); binding: 43%
DDR1 (Homo sapiens, UniProt Q08345); binding, competition with immobilised ligand: 77%
TAOK1 (Homo sapiens, UniProt Q7L7X3); binding, competition with immobilised ligand: 100%
ABL1 (Homo sapiens, UniProt P00519, Q252H): 36%
CLK2 (Homo sapiens, UniProt P49760); binding: 56%

Sample 5
Structure (SMILES): CCN(c1nc(N)c(C(=O)N=C(N)N)nc1Cl)C(C)C
Observed: β-arrestin recruitment
Action: agonist
Method: PRESTO-Tango
Concentration: 10 µM
Relative to: untreated
Measurement: fold over basal
Probable G-protein coupled receptor 153 (GPR153, Homo sapiens, UniProt Q6NV75): 0.83
GPR37L1 (Homo sapiens, UniProt O60883): 0.83
GLP1R (Homo sapiens, UniProt P43220): 1.11 fold
F2RL1 (Homo sapiens, UniProt P55085): 0.78
UTS2R (Homo sapiens, UniProt Q9UKP6): 0.96 fold

Sample 6
SMILES: O=S(=O)(NCCNC/C=C/c1ccc(Br)cc1)c1cccc2cnccc12
Observed: enzyme activity
Action: inhibitor
Concentration: 0.5 µM
Relative to: control
Measurement: remaining activity
MERTK (Homo sapiens, UniProt Q12866): 79.8%
MST1R (Homo sapiens, UniProt Q04912): 97.4%
EPHA3 (Homo sapiens, UniProt P29320): 109%
JAK3 (Homo sapiens, UniProt P52333): 122%
MAP2K2 (Homo sapiens, UniProt P36507): 103%
LCK (Homo sapiens, UniProt P06239): 103%
ULK2 (Homo sapiens, UniProt Q8IYT8): 98.9%
MAP3K5 (Homo sapiens, UniProt Q99683): 93.2%
TBK1 (Homo sapiens, UniProt Q9UHD2): 101%
TAOK2 (Homo sapiens, UniProt Q9UL54): 90.7%
CSNK1G2 (Homo sapiens, UniProt P78368): 86.8%
MAP3K14 (Homo sapiens, UniProt Q99558): 83.6%
FGFR3 (Homo sapiens, UniProt P22607): 91.3%
NEK6 (Homo sapiens, UniProt Q9HC98): 100%
WEE1 (Homo sapiens, UniProt P30291): 84.6%
ARAF (Homo sapiens, UniProt P10398): 95.8%
GSK3B (Homo sapiens, UniProt P49841): 83.5%
MAPK3 (Homo sapiens, UniProt P27361): 84.8%
CSNK1G3 (Homo sapiens, UniProt Q9Y6M4): 93.3%
RPS6KA2 (Homo sapiens, UniProt Q15349): 79.2%
NEK1 (Homo sapiens, UniProt Q96PY6): 94.4%
FGFR1 (Homo sapiens, UniProt P11362): 87.6%
TEK (Homo sapiens, UniProt Q02763): 99.8%

Single results of other studies
CN(C)C(=O)N1CC[C@H](N=C2Nc3cc(F)ccc3N(CC(F)F)c3ccc(Cl)cc32)C1 — viability (sample BA colorectal tumour organoid; 0.1 µM; relative to: DMSO): 104%
CC1=C(C#N)[C@@H](c2ccc3[nH]nc(C)c3c2)C(C#N)=C(c2ccc(Cl)cc2)N1 — inhibition (HTR3A (Homo sapiens, UniProt P46098); binding, radioligand binding; 10 µM): 2.6%

A few entries again (sample 2):
C[C@H]1C[C@H]2[C@@H]3CCC4=CC(=O)C=C[C@]4(C)[C@@]3(F)[C@@H](O)C[C@]2(C)[C@@]1(O)C(=O)CO: 2.78 z-score
COc1ccccc1OCC(O)COC(N)=O (stereo not shown): 0.323 z-score and 1.28 z-score
N=C(N)N1CCc2ccccc2C1: 0.72 z-score
CCCCN1CCCCC1C(=O)Nc1c(C)cccc1C (stereo not shown): 0.265 z-score
Clc1cccc(C(c2ccc3[nH]cnc3c2)n2ccnc2)c1 (stereo not shown): 2.96 z-score
O=C(Nc1ccccc1)N[C@@H]1C[C@@H](C(=O)O)Nc2cc(Cl)cc(Cl)c21: 0.22 z-score
